Measured values collected from several papers.
A part holds a random share of what one study measured.

Set 1 — method: protein-binding microarray; form: double-stranded DNA, one strand shown; medium: in vitro; tested at: 2200 nM top; notes: 60-bp whole probe; with: salmon DNA 0.4 mg/ml; baseline: random background probes; reading: higher = stronger binding; quantity: fitted relative affinity; all sequences stand within: GCCTAGCAC … GTCTTGATTCGCTTGACGCTGCTG
Target: Interferon regulatory factor 7, full length, phosphomimetic (IRF7, Homo sapiens, UniProt Q92985, residues 1-503, S471D/S472D/S475D/S476D/S477D/S483D/S484D/S487D)
UniProt Q92985, sequence (whole entry, unmodified, looked up): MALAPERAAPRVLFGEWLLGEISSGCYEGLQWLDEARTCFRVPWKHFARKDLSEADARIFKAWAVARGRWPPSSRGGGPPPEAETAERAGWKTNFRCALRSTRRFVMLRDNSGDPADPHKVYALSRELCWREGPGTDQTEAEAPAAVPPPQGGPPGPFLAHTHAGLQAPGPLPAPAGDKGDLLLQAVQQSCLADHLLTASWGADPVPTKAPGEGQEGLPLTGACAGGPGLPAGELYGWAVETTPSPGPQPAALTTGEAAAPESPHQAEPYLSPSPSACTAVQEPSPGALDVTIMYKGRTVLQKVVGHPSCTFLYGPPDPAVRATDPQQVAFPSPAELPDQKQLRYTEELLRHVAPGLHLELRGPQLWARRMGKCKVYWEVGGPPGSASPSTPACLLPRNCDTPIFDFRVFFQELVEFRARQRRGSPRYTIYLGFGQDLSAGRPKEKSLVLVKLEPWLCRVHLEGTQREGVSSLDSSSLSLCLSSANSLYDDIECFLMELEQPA
TTAGGTTTCGGTATCGGTTAGTGCTAG: 7.68 z-score
AACTTGGCAGGAGCGAATGGGTGCTAG: -0.495 z-score
TTCTGATCCATTTTGGTTTTGTGCTAG: 1.64 z-score
GACGGTATCGACTTTCGAGACGTGCTA: 2.51 z-score
TTAGGTTTCCTTATCCCTTAGTGCTAG: 2.5 z-score
TAAGGTCTCCTTTTCCTTTAGTGCTAG: 2.12 z-score
TTAGAACTGAGTCTCAATTAGTGCTAG: -0.626 z-score
TTAGGACTGGGGTATCGCTTAGTGCTA: -0.52 z-score

Set 2 — method: RNA Bind-n-Seq; form: RNA; medium: in vitro; tested at: 365 nM; baseline: no-protein control; reading: higher = stronger binding; quantity: RBNS enrichment (R)
Target: RNA binding protein fox-1 homolog 2, RRM domain, GST-SBP tag (RBFOX2, Homo sapiens, UniProt O43251-10, residues 100-194)
Notes: natural RNA segment, single round, ends assumed
Construct (chain): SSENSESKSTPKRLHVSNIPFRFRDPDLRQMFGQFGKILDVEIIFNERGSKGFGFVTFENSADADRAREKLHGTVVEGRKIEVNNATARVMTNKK
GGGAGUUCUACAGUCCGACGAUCUUUAUGCCCGGUACACACAACAUAUGUUCAGUUGUUCUUAACUACUUUUGUCAUUUGUUUUUUGGAGUAGUUUUGAAAAGUGUCUAUAUUGAGUACACUAUUGCUGUCCAUGGAAUUCUCGGGUGCCAA: 0.755
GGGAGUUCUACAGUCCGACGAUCUAGAGAGGAGCGGAAGAAGACCAUCGAGCUGACGGCACAUGACCGGCACCGGGCAGGGGCCAGUCCCUCAGCCCCUGGACCACUGGAGAAAAGGAAGACGAAGAGUUUGGUGGAAUUCUCGGGUGCCAA: 0.607
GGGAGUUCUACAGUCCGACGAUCUACAGUUUUUGUCACAAGACAGAAACUUUUGUCUCAUCCUCUCUGGCAAGUAGCAGCCUGAGGAAGAUGCUGGCUUGUCUGUACCGUCACGUCUGCAGCAGAGGCCCAGUUGGAAUUCUCGGGUGCCAA: 0.254
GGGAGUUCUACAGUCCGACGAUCGUGUCCAUCUCUUAGUUAGCUACCUUAACUGUCCACCCUUACUACCUGUGGGAUCGUUGCCUGGUUUGUCUUCUCUGUGUCCUGGAGCAAAGCCAGUUCCUAAAACUAAAUGGAAUUCUCGGGUGCCAA: 0.434
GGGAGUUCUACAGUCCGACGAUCCGCCCUGCCCGAGCAGCGUUCCUUUGGAGGGAGGCUGCAGAUCAUCCAGGGCUGCCCCUUCCGUUAUCCACCUCAUGAAUCACUGGCUGCAAUAAACAUCGAAGCACAGGUGGAAUUCUCGGGUGCCAA: 0.419
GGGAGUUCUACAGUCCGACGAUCUUUCUCCAUUUCUGAGGGUCAGGAUGGCCAAGCAUGGAUUAACACUAGGAGAGUGCAGAGCGCAGCAGAGCCUGCUCUCAUCCCUCUAUCCCCAGCCCAGUCUUCCUCCUUGGAAUUCUCGGGUGCCAA: 0.377
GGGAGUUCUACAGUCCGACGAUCCCACACUCAUCUGACACACGUACACUUAGACCUGUCUCUUCUUUUGCUUUUCAAUUUUGGAAAGGGAUCUCUGUCCAGGUCAGCCCCUCUUGAAGGGCUACCUUUUGUUUUGGAAUUCUCGGGUGCCAA: 0.406

Set 3 — method: universal PBM; form: double-stranded DNA, one strand shown; medium: in vitro; tested at: 600 nM; reading: higher = stronger binding; quantity: E-score
Target: Sal-like protein 4, full length isoform A (SALL4, Homo sapiens, UniProt Q9UJQ4, residues 1-1053)
UniProt Q9UJQ4, sequence (whole entry, looked up): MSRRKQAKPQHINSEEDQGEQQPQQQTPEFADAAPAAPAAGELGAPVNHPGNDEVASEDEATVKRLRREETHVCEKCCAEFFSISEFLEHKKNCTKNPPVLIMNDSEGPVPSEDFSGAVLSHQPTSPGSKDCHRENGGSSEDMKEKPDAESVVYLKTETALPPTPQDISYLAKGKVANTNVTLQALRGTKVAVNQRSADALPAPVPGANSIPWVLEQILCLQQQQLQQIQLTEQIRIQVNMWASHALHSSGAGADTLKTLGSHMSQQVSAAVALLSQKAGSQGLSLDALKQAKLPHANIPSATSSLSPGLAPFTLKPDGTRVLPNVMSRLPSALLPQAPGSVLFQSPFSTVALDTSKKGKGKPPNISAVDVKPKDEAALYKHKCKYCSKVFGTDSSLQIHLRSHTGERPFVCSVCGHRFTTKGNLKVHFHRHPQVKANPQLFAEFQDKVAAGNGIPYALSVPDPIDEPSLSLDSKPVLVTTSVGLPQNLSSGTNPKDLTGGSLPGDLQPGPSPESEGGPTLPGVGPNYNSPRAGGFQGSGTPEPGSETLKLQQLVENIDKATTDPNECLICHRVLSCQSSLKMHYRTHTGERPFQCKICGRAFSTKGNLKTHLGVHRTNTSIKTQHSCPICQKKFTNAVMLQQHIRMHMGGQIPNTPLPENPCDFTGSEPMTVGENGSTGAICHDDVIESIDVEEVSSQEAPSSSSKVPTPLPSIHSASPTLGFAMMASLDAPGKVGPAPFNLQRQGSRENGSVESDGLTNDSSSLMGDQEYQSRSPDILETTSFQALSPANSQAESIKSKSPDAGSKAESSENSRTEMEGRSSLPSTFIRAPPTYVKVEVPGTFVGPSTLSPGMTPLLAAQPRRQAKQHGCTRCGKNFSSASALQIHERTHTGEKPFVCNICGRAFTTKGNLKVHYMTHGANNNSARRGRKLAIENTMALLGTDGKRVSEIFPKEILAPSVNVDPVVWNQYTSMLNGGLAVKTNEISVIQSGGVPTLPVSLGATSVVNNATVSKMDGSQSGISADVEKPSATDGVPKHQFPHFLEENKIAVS
Notes: 8-mer, flanks averaged, mean of replicates
CACACAGA: -0.0226
AGGCGCCT: -0.217
CCTTGCTA: 0.0663
ACCGCACC: -0.307
CCCGGCAG: -0.354
GTAGAAAC: -0.0135
GTTCGGTA: 0.0244
TCTGGTAA: 0.0641
AACCTGAG: -0.145
AGATGTAG: 0.0392
CGTGAGGC: -0.249
CCAATCAA: -0.014
ATAGCGAT: 0.0119

Other studies, line by line
PhoQ, residues 284 288 289 292 302 303 ALVSVA
fold induction (PhoP, residues 12 14 15 18 19 NMSSL (Escherichia coli, UniProt P23836); Sort-seq, item: YFP reporter; E. coli; PhoQ-PhoP variant library, with: 10 µM Mg2+; baseline: high Mg2+ state, higher = stronger signaling): 2.97

Repeated from above (set 3):
CACACAGA: -0.0226
AGGCGCCT: -0.217
CCTTGCTA: 0.0663
ACCGCACC: -0.307
